Measurements collected from several papers.
Protocols differ between the studies behind these lines.
UniProt O43293, sequence (whole entry, looked up): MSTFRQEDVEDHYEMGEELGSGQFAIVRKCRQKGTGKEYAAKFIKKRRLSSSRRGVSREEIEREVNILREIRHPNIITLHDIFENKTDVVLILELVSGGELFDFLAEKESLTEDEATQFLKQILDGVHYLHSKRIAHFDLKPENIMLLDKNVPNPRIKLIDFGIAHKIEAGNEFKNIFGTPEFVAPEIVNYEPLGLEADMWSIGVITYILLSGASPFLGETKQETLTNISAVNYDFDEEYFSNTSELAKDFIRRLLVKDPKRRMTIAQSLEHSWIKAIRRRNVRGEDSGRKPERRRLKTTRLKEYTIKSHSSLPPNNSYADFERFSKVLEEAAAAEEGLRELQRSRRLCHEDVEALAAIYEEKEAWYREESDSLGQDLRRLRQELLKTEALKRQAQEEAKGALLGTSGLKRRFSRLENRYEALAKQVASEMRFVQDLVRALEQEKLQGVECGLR
UniProt P00520, sequence (whole entry, looked up): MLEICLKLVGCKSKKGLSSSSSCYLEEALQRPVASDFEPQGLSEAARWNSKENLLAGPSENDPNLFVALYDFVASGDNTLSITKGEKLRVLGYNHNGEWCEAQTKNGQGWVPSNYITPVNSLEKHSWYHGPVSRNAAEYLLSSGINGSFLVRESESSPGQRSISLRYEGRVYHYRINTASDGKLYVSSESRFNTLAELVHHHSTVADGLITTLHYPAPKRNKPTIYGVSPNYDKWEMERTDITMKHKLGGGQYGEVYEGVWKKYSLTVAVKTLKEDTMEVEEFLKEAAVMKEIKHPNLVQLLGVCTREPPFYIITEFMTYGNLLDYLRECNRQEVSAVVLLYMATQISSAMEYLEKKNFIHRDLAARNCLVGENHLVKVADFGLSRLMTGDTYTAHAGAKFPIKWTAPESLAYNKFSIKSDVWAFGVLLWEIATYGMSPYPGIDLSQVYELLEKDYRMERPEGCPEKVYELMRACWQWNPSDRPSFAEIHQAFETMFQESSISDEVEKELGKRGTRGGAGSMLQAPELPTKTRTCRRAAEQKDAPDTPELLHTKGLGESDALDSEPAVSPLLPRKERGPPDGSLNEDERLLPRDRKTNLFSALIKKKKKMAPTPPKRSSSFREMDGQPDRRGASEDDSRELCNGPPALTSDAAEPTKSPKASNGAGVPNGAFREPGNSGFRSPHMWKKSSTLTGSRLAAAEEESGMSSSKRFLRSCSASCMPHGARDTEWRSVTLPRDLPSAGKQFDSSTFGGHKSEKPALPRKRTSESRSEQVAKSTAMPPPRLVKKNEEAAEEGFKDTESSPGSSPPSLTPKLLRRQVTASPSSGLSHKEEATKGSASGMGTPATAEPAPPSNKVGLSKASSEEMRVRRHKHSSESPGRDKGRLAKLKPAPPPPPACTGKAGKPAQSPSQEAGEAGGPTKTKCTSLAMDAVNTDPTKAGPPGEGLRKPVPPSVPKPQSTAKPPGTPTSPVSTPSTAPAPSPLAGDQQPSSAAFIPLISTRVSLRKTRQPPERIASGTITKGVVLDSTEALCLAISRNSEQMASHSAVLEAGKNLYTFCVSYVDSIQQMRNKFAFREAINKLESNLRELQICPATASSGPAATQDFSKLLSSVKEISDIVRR

Compound	target or system	assay	setting	endpoint	result
CCN(O)N=Nc1ccc(S(=O)(=O)Nc2onc(C)c2C)cc1		ABTS scavenging	20 µg/mL	inhibition	13.9%
CCC(C)(C)C1CCc2[nH]c3ccccc3c(=O)c2C1 (stereo not drawn)	HEK293	cell growth or viability		IC50	> 10 µM
NCc1ccc(-c2nn(Cc3ccccn3)c3cccnc23)o1	RBE	cell growth or viability, ATP luminescence		IC50	3.09 µM
C=CC(=O)N1CCC(COCC(=O)N2CCN(c3nc(-c4cnc(N)nc4C(F)F)nc(N4CCOC[C@@H]4C)n3)CC2)CC1	DAPK3 (Homo sapiens, UniProt O43293)	binding, competition with immobilised ligand	1 µM	remaining binding	100%
COc1ccc2c(=O)c(C3CCC(c4ccc(Cl)cc4)CC3)c(C)[nH]c2c1 (stereo not drawn)	HEK293	cell growth or viability		IC50	> 10 µM
O=C(CCCC[C@H]1SC[C@H]2NC(=O)N[C@H]21)NCCOCCOCCOc1cccc(Cn2nc(-c3ccc(CO)o3)c3ccccc32)c1	RBE	cell growth or viability, ATP luminescence		IC50	4.47 µM
Cc1csc(-c2nnc(Nc3ccc(Oc4ncccc4-c4ccnc(N)n4)cc3)c3ccccc23)c1	MB002	cell growth or viability	7 days	IC50	0.0012 µM
O=C(Nc1ccccc1)Nc1ccc(Oc2nnc(-c3ccc(Cl)cc3)c3ccccc23)cc1	MCF7	cell growth or viability, MTT	5 µM	cell death	96.8%
Cc1[nH]c(C)c(-c2ccc(OCc3ccc(F)cc3)cc2)c(=O)c1Br	HEK293	cell growth or viability		IC50	> 10 µM
C=C(F)C(=O)N1CCN(c2nc(OC[C@@H]3CCCN3C)nc3c2CCN(c2cccc4cccc(Cl)c24)C3)C[C@@H]1CC#N	Calu-1	cell growth or viability, ATP luminescence		IC50	0.0488 µM
COc1cc2nccc(Oc3ccc(NC(=O)C4(C(=O)Nc5ccc(F)cc5)CC4)cc3)c2cc1OC	HD-MB03	cell growth or viability	7 days	IC50	> 10 µM
COc1cc(-c2cncc3c2CN(C)Cc2cc(N4CCNCC4)ccc2-3)cc(OC)c1OC	Abl1 (Mus musculus, UniProt P00520)	enzyme activity, inhibitor	1 µM	remaining activity	79%
CNc1ncc2c(/C=C/C(=O)N3CCC(OC)CC3)nn(Cc3cccc(C(F)(F)F)c3)c2n1	Cyclin-dependent kinase 2, with cyclin E1 (CDK2, Homo sapiens, UniProt P24941)	enzyme activity, inhibitor, radiometric	1 µM	remaining activity	100%
CCC(C)n1ncn(-c2ccc(N3CCN(c4ccc(OCC5COC(Cn6cncn6)(c6ccc(Cl)cc6Cl)O5)cc4)CC3)cc2)c1=O (stereo not drawn)	MB002	cell growth or viability	7 days	IC50	0.372 µM
COc1cc2c3c(n(CCCn4ccnc4)c(=O)c2cc1OC)-c1nc2c(cc1C3=O)OCO2	Kasumi 1	cell growth or viability, MTS	72 h	IC50	> 2 µM

A few entries again:
Compound	target or system	assay	setting	endpoint	result
COc1cc2nccc(Oc3ccc(NC(=O)C4(C(=O)Nc5ccc(F)cc5)CC4)cc3)c2cc1OC	HD-MB03	cell growth or viability	7 days	IC50	> 10 µM
COc1cc(-c2cncc3c2CN(C)Cc2cc(N4CCNCC4)ccc2-3)cc(OC)c1OC	Abl1 (Mus musculus, UniProt P00520)	enzyme activity, inhibitor	1 µM	remaining activity	79%
